Experimental data gathered from unrelated publications.
Lines come from different studies, so protocols differ. ± marks the error that the study gave. Ends that are not written are not given here.
IKBKG 2-419 C11A/C76A/C95A/C131A/C167A: IKBKG 2-419 C11A/C76A/C95A/C131A/C167A (Homo sapiens, UniProt Q9Y6K9)
UniProt Q9Y6K9, sequence (whole entry, unmodified, looked up): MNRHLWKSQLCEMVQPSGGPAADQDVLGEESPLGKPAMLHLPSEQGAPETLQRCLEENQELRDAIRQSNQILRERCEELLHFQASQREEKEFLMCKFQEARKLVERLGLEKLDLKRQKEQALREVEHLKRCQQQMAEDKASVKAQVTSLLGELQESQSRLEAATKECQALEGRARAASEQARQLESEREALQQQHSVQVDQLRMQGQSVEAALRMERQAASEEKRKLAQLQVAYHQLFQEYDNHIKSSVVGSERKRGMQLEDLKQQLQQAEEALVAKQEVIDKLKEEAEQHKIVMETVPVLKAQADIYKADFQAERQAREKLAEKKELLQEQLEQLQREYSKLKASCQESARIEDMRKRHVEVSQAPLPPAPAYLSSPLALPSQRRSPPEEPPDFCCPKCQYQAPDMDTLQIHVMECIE
B1: FLRT3 LRR domain 29-357 (Homo sapiens, UniProt Q9NZU0); sequence looked up; chain KSCPSVCRCDAGFIYCNDRFLTSIPTGIPEDATTLYLQNNQINNAGIPSDLKNLLKVERIYLYHNSLDEFPTNLPKYVKELHLQENNIRTITYDSLSKIPYLEELHLDDNSVSAVSIEEGAFRDSNYLRLLFLSRNHLSTIPWGLPRTIEELRLDDNRISTISSPSLQGLTSLKRLVLDGNLLNNHGLGDKVFFNLVNLTELSLVRNSLTAAPVNLPGTNLRKLYLQDNHINRVPPNAFSYLRQLYRLDMSNNNLSNLPQGIFDDLDNITQLILRNNPWYCGCKMKWVRDWLQSLPVKVNVRGLMCQAPEKVRGMAIKDLNAELFDCKD
B2: UGT1A9 (Homo sapiens, UniProt O60656); chain GKLLVVPMDGSHWFTMRSVVEKLILRGHEVVVVMPEVSWQLGRSLNCTVKTYSTSYTLEDLDREFKAFAHAQWKAQVRSIYSLLMGSYNDIFDLFFSNCRSLFKDKKLVEYLKESSFDAVFLDPFDNCGLIVAKYFSLPSVVFARGILCHYLEEGAQCPAPLSYVPRILLGFSDAMTFKERVRNHIMHLEEHLLCHRFFKNALEIASEILQTPVTEYDLYSHTSIWLLRTDFVLDYPKPVMPNMIFIGGINCHQGKPLPMEFEAYINASGEHGIVVFSLGSMVSEIPEKKAMAIADALGKIPQTVLWRYTGTRPSNLANNTILVKWLPQNDLLGHPMTRAFITHAGSHGVYESICNGVPMVMMPLFGDQMDNAKRMETKGAGVTLNVLEMTSEDLENALKAVINDKSYKENIMRLSSLHKDRPVEPLDLAVFWVEFVMRHKGAPHLRPAAHDLTWYQYHSLDVIGFLLAVVLTVAFITFKCCAYGYRKCLGKKGRVKKAHKSKTH
B3: CABP1 N-terminal lobe (Homo sapiens); chain DRSLRPEEIEELREAFREFDKDKDGYINCRDLGNCMRTMGYMPTEMELIELSQQINMNLGGHVDFDDFVELMGPKLLAET
B4: CPT1A 381-469 (Rattus norvegicus, UniProt P32198); Cy3 label; sequence looked up; chain AALTAADRVPWAKCRQTYFARGKNKQSLDAVEKAAFFVTLDESEQGYREEDPEASIDSYAKSLLHGRCFDRWFDKSITFVVFKNSKIGI
B5: Adgrl3 199-495 D332A (Mus musculus, UniProt Q80TS3); sequence looked up; chain KVFLCPGLLKGVYQSEHLFESDHQSGAWCKDPLQASDKIYYMPWTPYRTDTLTEYSSKDDFIAGRPTTTYKLPHRVDGTGFVVYDGALFFNKERTRNIVKFDLRTRIKSGEAIIANANYHDTSPYRWGGKSDIALAVDENGLWVIYATEQNNGKIVISQLNPYTLRIEGTWDTAYDKRSASNAFMICGILYVVKSVYEDDDNEATGNKIDYIYNTDQSKDSLVDVPFPNSYQYIAAVDYNPRDNLLYVWNNYHVVKYSLDFGPLDSRSGPVHHGQVSYISPPIHLDSELERPPVRGI
UniProt P24942, sequence (whole entry, looked up): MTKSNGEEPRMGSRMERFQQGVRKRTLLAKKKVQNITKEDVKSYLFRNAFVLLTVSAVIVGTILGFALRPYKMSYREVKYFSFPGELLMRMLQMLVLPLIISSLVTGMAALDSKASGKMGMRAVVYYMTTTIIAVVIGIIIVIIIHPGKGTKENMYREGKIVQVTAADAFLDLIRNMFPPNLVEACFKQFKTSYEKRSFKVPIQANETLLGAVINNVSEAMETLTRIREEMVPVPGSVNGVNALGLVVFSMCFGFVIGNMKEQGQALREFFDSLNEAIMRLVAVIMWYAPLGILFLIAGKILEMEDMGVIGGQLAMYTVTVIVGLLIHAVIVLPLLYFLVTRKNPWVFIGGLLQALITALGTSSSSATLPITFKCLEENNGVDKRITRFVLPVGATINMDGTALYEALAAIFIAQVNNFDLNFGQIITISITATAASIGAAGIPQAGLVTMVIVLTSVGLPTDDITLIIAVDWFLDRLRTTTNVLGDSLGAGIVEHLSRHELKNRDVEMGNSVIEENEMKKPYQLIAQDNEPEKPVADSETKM
UniProt Q9UBZ9, sequence (whole entry, looked up): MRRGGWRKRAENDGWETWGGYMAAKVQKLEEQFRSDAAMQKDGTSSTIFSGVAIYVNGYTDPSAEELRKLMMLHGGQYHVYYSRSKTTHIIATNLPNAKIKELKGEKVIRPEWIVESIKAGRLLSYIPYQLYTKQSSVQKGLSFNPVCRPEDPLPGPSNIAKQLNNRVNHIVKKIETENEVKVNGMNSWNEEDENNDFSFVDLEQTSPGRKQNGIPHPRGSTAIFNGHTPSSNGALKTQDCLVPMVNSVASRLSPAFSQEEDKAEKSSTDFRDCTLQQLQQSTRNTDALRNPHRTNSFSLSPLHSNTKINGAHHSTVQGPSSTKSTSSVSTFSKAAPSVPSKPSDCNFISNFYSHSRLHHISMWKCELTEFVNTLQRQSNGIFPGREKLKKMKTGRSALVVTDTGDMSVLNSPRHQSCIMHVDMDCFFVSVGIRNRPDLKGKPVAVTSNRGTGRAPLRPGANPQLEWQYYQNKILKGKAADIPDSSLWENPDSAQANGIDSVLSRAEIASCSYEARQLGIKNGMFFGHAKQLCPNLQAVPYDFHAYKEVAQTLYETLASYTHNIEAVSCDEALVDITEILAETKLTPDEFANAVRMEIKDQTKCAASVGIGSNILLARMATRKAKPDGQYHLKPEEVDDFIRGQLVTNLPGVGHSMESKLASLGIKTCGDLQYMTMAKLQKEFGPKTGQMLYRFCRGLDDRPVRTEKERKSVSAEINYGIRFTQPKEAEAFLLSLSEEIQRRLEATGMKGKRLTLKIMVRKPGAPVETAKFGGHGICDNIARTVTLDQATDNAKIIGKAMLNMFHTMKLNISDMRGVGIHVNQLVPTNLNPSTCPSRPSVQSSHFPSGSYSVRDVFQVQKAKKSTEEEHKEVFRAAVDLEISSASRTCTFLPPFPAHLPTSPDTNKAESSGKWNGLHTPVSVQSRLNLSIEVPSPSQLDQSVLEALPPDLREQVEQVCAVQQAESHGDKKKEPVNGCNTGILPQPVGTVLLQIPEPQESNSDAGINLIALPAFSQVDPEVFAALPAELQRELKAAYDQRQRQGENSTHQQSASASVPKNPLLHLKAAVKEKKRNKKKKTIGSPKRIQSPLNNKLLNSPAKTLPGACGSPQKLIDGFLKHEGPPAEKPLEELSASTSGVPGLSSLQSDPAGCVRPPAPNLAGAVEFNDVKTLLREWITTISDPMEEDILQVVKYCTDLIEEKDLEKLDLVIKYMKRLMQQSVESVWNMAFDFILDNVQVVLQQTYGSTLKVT
UniProt P12710, sequence (whole entry, looked up): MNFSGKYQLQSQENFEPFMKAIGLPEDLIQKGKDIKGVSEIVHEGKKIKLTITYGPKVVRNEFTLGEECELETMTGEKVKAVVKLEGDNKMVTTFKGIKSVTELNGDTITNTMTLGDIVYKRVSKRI

Substance	target or system	assay	system	setting	measurement	value
KELVALTPPSPFRD (Grm5)	Homer1a	ITC	peptide	–	Kd	16400 ± 200 nM
PAKKSEELVAEAHNLSTLLENAIQDTVREQDQSFTALDWAWLQTE (IKBKB 701-745 C716S/S740A (Homo sapiens, UniProt O14920); sequence looked up)	IKBKG 2-419 C11A/C76A/C95A/C131A/C167A	competition with labelled peptide, fluorescence polarisation	–	pH 7.4	Kd	85 nM
B1 (FLRT3 LRR domain 29-357)	ADGRL3 20-1447 Y249A/D251A/T252A/E279A/R308A (Homo sapiens, UniProt Q9HAR2)	flow cytometry	HEK293	100 nM, tetramerised, avidity, in cells	Kd	> 10000 nM
B2 (UGT1A9)	COc1ccc(-c2cc(=O)c3ccc(O)cc3o2)cc1	steady-state kinetics	–	pH 7.4, 37 °C	Km	3.37 µM
PAKKSEELVAEAHNLSTLLENAIQDTVREADQSFTALDWSWLQTE (IKBKB 701-745 C716S/Q730A (Homo sapiens, UniProt O14920); sequence looked up)	IKBKG 2-419 C11A/C76A/C95A/C131A/C167A	competition with labelled peptide, fluorescence polarisation	–	pH 7.4	Kd	3.9 nM
NHERF2 fragment (Homo sapiens)	Slc1a3 (Rattus norvegicus, UniProt P24942)	far-Western blot	–	saturation binding	Kd	196 nM
B3 (CABP1 N-terminal lobe)	CACNA1C IQ domain three CaM anchors to alanine (Homo sapiens)	ITC	–	pH 7.4, KCl 5 mM, together with: CaCl2 1 mM	Kd	> 5000 nM
KGNMMSNFFGKAAMNK (POLD3 residues 231-246 (Homo sapiens); N-terminal cysteine)	REV1 1158-1251 (Homo sapiens, UniProt Q9UBZ9)	SPR	peptide	pH 7.4, 25 °C, NaCl 150 mM, equilibrium analysis	Kd	2300 ± 600 nM
B4 (CPT1A 381-469)	Fabp1, Cy5 label (Mus musculus, UniProt P12710)	FRET	–	24 °C	Kd	2.5 nM
B5 (Adgrl3 199-495 D332A)	FLRT3 LRR domain 29-386, N-linked glycosylation (Mus musculus, UniProt Q8BGT1)	ITC	–	pH 7.0, 25 °C, NaCl 150 mM	Kd	170 nM
ARTK(Me3)QTARKSTGGKAY (histone H3 2-16 (UniProt P68431); not fully specified; K4me3; Me3 = Me3: trimethyl-lysine (trimethylated lysine))	KMT2A 1564-1628 V1617A (Homo sapiens, UniProt Q03164)	ITC	peptide	pH 7.2, 25 °C, NaCl 50 mM	Kd	52400 nM

Some of these lines once more:
Substance	target or system	assay	system	setting	measurement	value
B5 (Adgrl3 199-495 D332A)	FLRT3 LRR domain 29-386, N-linked glycosylation (Mus musculus, UniProt Q8BGT1)	ITC	–	pH 7.0, 25 °C, NaCl 150 mM	Kd	170 nM
